# Experimental data gathered from unrelated publications.
# A part holds a random share of what one study measured. Positions count from the first letter of the parent shown.

# Set 1 — method: RNA Bind-n-Seq; form: RNA; matrix: in vitro; concentration: 365 nM; reference: no-protein control; direction: higher = stronger binding
# Target: RNA binding protein fox-1 homolog 2, RRM domain, GST-SBP tag (RBFOX2, Homo sapiens, UniProt O43251-10, residues 100-194)
# Notes: natural RNA segment, single round, ends assumed
# Constant ends, left off below: GGGAGUUCUACAGUCCGACGAUC … UGGAAUUCUCGGGUGCCAA
# Construct (chain): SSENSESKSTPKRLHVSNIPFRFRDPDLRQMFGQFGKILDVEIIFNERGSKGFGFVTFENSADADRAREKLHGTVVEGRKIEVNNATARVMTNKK
Strand,RBNS enrichment (R)
CCAUAGAGAGUUUGUAGGUAUUUCCAGGGAUGGAGAAGAUCUAAGCAUUUGACUUCCCCAUCAGUACAUUUGUUCAUUUGCUUUCUCUGUGAAACGCCAUGAUUGUCUAA,1.98
CUUAACCCGUUUCUCUGGAUUUUAUGCUUCUGUGGCAUGUGGACCAUGAACCAUGUCCAAAGAACCAGGGGUGGGAAACACUCUCCCAGAGGGCUCCCUCCUAUAACUCC,0.616
CAUAGUCGCCCCCAGCUGGGUUGUGCUCCACUGUGACGGUGGCCCGGGGGGAGGAUGCCAGCAGCCUGCCUAUGGCUCCAGCUGUGCUGUGGCCCAGCAGCAUGGCCUGC,0.268
CUUUAAGUGUUGGCUGUAUGUGCUGGGUUCUCUAAAGAAGUUUCUCUUCCCGAGCUGUUUUUCCGAGCAGUUUUGUUCGUGUCUCUUAAGGAAAUCACCAGCUUUGGCAU,0.403
GUUAAUCCAGUUUCCUAUUAGAAAGUGUGUCUUUGCUAUUUCCUCUGUAAGAGAAUAGAAUGGCCUUGAGAGUUUAUGAAGGAUUUGCACACUCGUCUUGCCUAGGAAGU,1.78
UAAACCCAGCCCCCAAGCUGAGACCAGUCUCCCUGUGGCGGAGCCAGCCAAGAUGGGGCCAUUCUCUCUGUGGAGGAGCCCCUUCCAGCCUUUGUCAGGAAGUGUCUUUG,0.241
CAGGCAGACAGCCUCAGCAACGCCCCUGGUGGACAGGAUGGUUCGGCAAAGCAGCCUGAGUUAUUUUUGUGGACGGAAUCGGAACACGCUGGCUCCAUAUCGUGAAAUUU,0.395
CAUUUUCUCAUGAGUCUCCAAGCCCACUUGAAAAGUCACACUGAAAGGAUGCAAAUAGCCGUCUGCGAUUUUGGCGGCCCUCCGGAUUGUGGUGACAAUAUGUUGUACCC,0.239

# Set 2 — method: protein-binding microarray; form: double-stranded DNA, one strand shown; matrix: in vitro; concentration: not given; direction: higher = stronger binding
# Target: Max-binding protein MNT, bHLH-zipper, MAX partner unstated (MNT, Homo sapiens, UniProt Q99583, residues 220-300)
# Notes: k-mer, scored over probes, only values ≥0.25
# Residues (chain): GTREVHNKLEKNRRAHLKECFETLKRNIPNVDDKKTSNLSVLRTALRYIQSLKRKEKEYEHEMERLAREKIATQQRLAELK
Strand,E-score
CCCCCGCC,0.274
CGTGTGCA,0.391
ACGTGCCT,0.407
CACCACGC,0.429
CATGCATG,0.403
ATGACACG,0.4
ACGAGGAG,0.297
CACCCACG,0.382

# Set 3 — method: aptamer microarray, sandwich; form: DNA with 2'F-ANA; matrix: in vitro; concentration: 200 nM; together with: Cy3 exosite-II aptamer, 400 nM; direction: higher = stronger binding; strand: GGTTGGTGTGGTTGG
# Target: Prothrombin, mature alpha-thrombin (F2, Homo sapiens, UniProt P00734)
# Notes: whole 15-mer aptamer, many near background
Modification,mean fluorescence intensity [a.u.]
2'F-ANA at 1 2 3 9 11 14 15,63.1
2'F-ANA at 1 2 7 8 9 10 11 12,68
2'F-ANA at 1 3 4 5 6 8 12,142
2'F-ANA at 1 2 3 4 5 7 9 10 12,53.1
2'F-ANA at 1 2 3 5 6 8 9 10 13 15,49.1
2'F-ANA at 1 3 4 6 7 10 11 14,50.3
2'F-ANA at 1 2 4 6 7 10 14 15,48.7
2'F-ANA at 1 2 6 7 9 11 12 13 15,162

# Other studies, line by line
# Parent: viral docking peptide; KKVKRRLFETREL; partner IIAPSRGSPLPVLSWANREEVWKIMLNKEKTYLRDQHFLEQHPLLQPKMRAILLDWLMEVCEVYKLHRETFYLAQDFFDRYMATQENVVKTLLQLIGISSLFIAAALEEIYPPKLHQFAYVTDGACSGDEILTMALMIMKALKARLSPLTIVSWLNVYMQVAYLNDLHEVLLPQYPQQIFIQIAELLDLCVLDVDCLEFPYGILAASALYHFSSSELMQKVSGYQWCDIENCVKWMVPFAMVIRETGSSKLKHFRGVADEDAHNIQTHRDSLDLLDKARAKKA
Change,target,test,system,setting,how to read,endpoint,result
KKVKRRLFEAREL [T10A],"CCNE1, cyclin fold, Cln2 fusion (human)","yeast growth competition, sequencing",yeast,strong parent motif,"reference: not given, higher = stronger binding",normalised enrichment score,4.83

# A few entries again (set 1):
Strand,RBNS enrichment (R)
CUUUAAGUGUUGGCUGUAUGUGCUGGGUUCUCUAAAGAAGUUUCUCUUCCCGAGCUGUUUUUCCGAGCAGUUUUGUUCGUGUCUCUUAAGGAAAUCACCAGCUUUGGCAU,0.403
GUUAAUCCAGUUUCCUAUUAGAAAGUGUGUCUUUGCUAUUUCCUCUGUAAGAGAAUAGAAUGGCCUUGAGAGUUUAUGAAGGAUUUGCACACUCGUCUUGCCUAGGAAGU,1.78
UAAACCCAGCCCCCAAGCUGAGACCAGUCUCCCUGUGGCGGAGCCAGCCAAGAUGGGGCCAUUCUCUCUGUGGAGGAGCCCCUUCCAGCCUUUGUCAGGAAGUGUCUUUG,0.241
CAGGCAGACAGCCUCAGCAACGCCCCUGGUGGACAGGAUGGUUCGGCAAAGCAGCCUGAGUUAUUUUUGUGGACGGAAUCGGAACACGCUGGCUCCAUAUCGUGAAAUUU,0.395
